Published values from different studies.
Compare with care: the assays were run in different laboratories. Numbers after ± are the reported error.

SMILES	target or system	test	test system	setting	quantity	result
CO[C@@H](C[C@H]1C(C)=CC[C@@H]2[C@]3(C)C[C@H](O[C@@H]4O[C@@H](C)[C@H](OC(=O)c5cccc(O)c5)[C@@H](O[C@@H]5O[C@H](CO)[C@@H](O)[C@H](O)[C@H]5NC(C)=O)[C@H]4O)[C@@H](O)C(C)(C)[C@H]3CC[C@]21C)[C@H](N)C(=O)O	3T3 fibroblasts	cell viability, CCK-8		72 h	IC50	> 10 µM
Cc1ccc(-c2ccc(C)cn2)nc1.[Co+2].[O-]c1c(I)cc(Cl)c2cccnc12.[O-]c1c(I)cc(Cl)c2cccnc12	BEL-7404	cell growth or viability, MTT		48 h	IC50	10.3 µM
C=CC(=O)N1CCCC(n2c(=O)c3ncccc3n(Cc3ccc(Oc4ccccc4)cc3)c2=O)C1 (stereo not drawn)	Karpas-1718	cell growth or viability, MTT		72 h	IC50	0.3 µM
C[C@@H]1CC[C@@H]([C@](O)(CNCc2ccc(F)cc2)COCc2ccccc2)[C@H](OCc2ccccc2)C1	A2780	cell growth or viability, MTT		72 h	IC50	11.8 µM
CNS(=O)(=O)Nc1nccc(Cc2c(C)c3ccc(Oc4ncccc4F)cc3oc2=O)c1F	MOLT-16	cell viability		7 days	IC50	> 1 µM
O=C(N/N=C/c1ccc(C[n+]2ccccc2)cc1)c1cccc(C(=O)N/N=C/c2ccc(C[n+]3ccccc3)cc2)c1	22CTA telomeric G4-DNA antiparallel	FRET melting		1 µM, K10 buffer, DNA 0.2 µM	ΔTm	3.5 ± 0.3 °C
Cc1ccc([N+](=O)[O-])cc1S(=O)(=O)N(C)/N=C/c1cnc2ccc(Br)cn12	SK-MEL-2	cell growth or viability			IC50	0.317 µM
CCCON(Cc1ccc(C(=O)NO)cc1)C(=O)Nc1cc(C)cc(C)c1	SUP-B15 B-ALL	cell viability, CellTiter-Glo		72 h	IC50	2.16 ± 0.124 µM
O=C(NCc1cc(F)cc(F)c1)[C@@]1(O)CCN(c2ccc3[nH]ccc3c2)C1=O	SW1990	cell growth or viability			IC50	> 30 µM
O=C(c1ccc([C@H]2[C@@H](F)[C@@H](F)C[C@@H](F)[C@H]2F)cc1)N1CCC(F)CC1		liver microsome stability	cynomolgus liver microsomes	1 µM	hepatic clearance	1.2 L/h/kg
Cc1cc(C)cc(COc2cc3c(cc2OCc2cc(C)cc(C)c2)[C@H]2C[C@@](O)(Cc4cn(Cc5ccc(F)cc5)nn4)C[C@@H](C)N2CC3)c1	GES1	cell growth or viability, MTT		48 h	IC50	1.92 µM
CC(C)(C)c1nc(-c2cccc(NS(=O)(=O)c3c(F)cccc3F)c2F)c(-c2ccnc(N)n2)s1.Cc1[nH]c2ccccc2c1CCNCc1ccc(/C=C/C(=O)NO)cc1	A2780	cell growth or viability, crystal violet		48 h	IC50	0.0202 µM
N#CCNC(=O)c1ccc([C@H]2[C@@H](F)[C@@H](F)C[C@@H](F)[C@H]2F)cc1		liver microsome stability	mouse liver microsomes	1 µM	hepatic clearance	0.84 L/h/kg
Cc1ccc(-c2ccc(C)cn2)nc1	BEL-7404	cell growth or viability, MTT		48 h	IC50	> 50 µM
CC(C)(C)c1cnc(CSc2cnc(NC(=O)C3CCN(C(=O)CCCCCCN4Cc5cc6c(cc5C4)C(=O)N(C4CCC(=O)NC4=O)C6=O)CC3)s2)o1 (stereo not drawn)	SJSA-1	cell growth or viability, MTT			IC50	0.422 µM
O=C1CCP(=O)(c2ccccc2)CC1	HaCaT	cell growth or viability, MTT		72 h	IC50	> 100 µM
COc1cc2ncnc(Nc3ccc(F)c(Cl)c3)c2cc1NC(=O)/C=C/CN1CCCCC1	BaF3	cell growth or viability		72 h	IC50	2.6 µM
CC(=O)[O][Pt]([NH2])([NH2])([Cl])([Cl])[O]C(=O)CCCc1ccccc1	2008 ovarian adenocarcinoma	cytotoxicity, MTT		72 h	IC50	0.78 ± 0.2 µM

SMILES	target or system	test	test system	setting	quantity	result
O=C(Nc1cc(-c2ccnc3[nH]ccc23)c(Cl)cn1)[C@H]1CCC[C@@H](NC(=O)C(F)(F)F)C1	MINO	cell growth or viability		72 h	IC50	0.0252 µM
Cc1cc(Cl)cc(-c2ccnc3cc(CN4C(=O)C5C(C4=O)C5(C)C)sc23)c1C[C@@H]1CNCCO1 (stereo partly drawn)	CHP-212 parental	cell viability, SRB		mean of 3 runs	IC50	0.41 µM
COc1cccc(CNC[C@@](O)(COCc2ccccc2)[C@@H]2CC[C@@H](C)C[C@H]2OCc2ccccc2)c1	A2780	cell growth or viability, MTT		72 h	IC50	1.37 µM
CCOC(=O)CC[C@@H](C)[C@H]1CC[C@H]2[C@@H]3[C@H](O)C[C@@H]4C[C@H](O)CC[C@]4(C)[C@H]3C[C@H](O)[C@]12C	A2780	cell growth or viability, MTT		96 h	IC50	35 µM
COc1cc(-c2cn(C)c(=O)c3cnccc23)c(OC)cc1Cn1ccnc1	MOLM16	cell growth or viability, ATP luminescence			IC50	1.6 µM
COc1ccc(CNC[C@](O)(COCc2ccccc2)[C@@H]2CC[C@@H](C)C[C@H]2OCc2ccccc2)cc1	A2780	cell growth or viability, MTT		72 h	IC50	2.51 µM
CN1CCC(N[C@@H]2CCc3[nH]c4c(C(N)=O)ccc(-c5ccccc5Cl)c4c3C2)CC1	MINO	cell growth or viability			IC50	0.039 µM
Cc1ccc2c(Cl)cc(Cl)c([O-])c2n1.Cc1ccc2c(Cl)cc(Cl)c([O-])c2n1.[Co+2].c1ccc(-c2ccccn2)nc1	BEL-7404	cell growth or viability, MTT		48 h	IC50	6 µM
NC(=O)c1ccc(-c2ccccc2Cl)c2c3c([nH]c12)CCC(N)C3 (stereo not drawn)	Pfeiffer	cell growth or viability		96 h	IC50	0.0191 µM
CCn1cc(-c2cccc(C(F)(F)F)c2)c2sc(C(=N)NC3CCS(=O)(=O)CC3)cc2c1=O	MOLM16	cell growth or viability, ATP luminescence			IC50	1.39 µM
Cn1ncc(-c2ccc3c(=O)[nH]nc(CN)c3c2)c1-c1c(F)c(Cl)cc(OC2CC2)c1C#N	NCI-H1437	cell viability, inhibitor, CellTiter-Glo		120 h, baseline-subtracted	IC50	0.3 µM
CCOc1cncc(-c2ccc(NC(=O)C3(c4ccnc(NS(=O)(=O)C5CC5)n4)CCOCC3)nc2)n1	DoTc2-4510	cell growth or viability, ATP luminescence		72 h	IC50	10 µM
Cc1nc2ccc(Br)cc2c(=O)n1N	LoVo	cytotoxicity, LDH release		24 h, 50% viability reduction	IC50	1050 ± 64 µM
Clc1ccnc2c1ccc1c(Cl)ccnc12.[Co+2].[O-]c1c(I)cc(I)c2cccnc12.[O-]c1c(I)cc(I)c2cccnc12	BEL-7404	cell growth or viability, MTT		48 h	IC50	25 µM
O=C(N/N=C/c1ccc(C[n+]2ccccc2)cc1)N/N=C/c1ccc(C[n+]2ccccc2)cc1	22CTA telomeric G4-DNA antiparallel	FRET melting		1 µM, K10 buffer, DNA 0.2 µM	ΔTm	4.1 ± 0.3 °C
CCCC(CCC)C(=O)[O][Pt]([NH2])([NH2])([Cl])([Cl])[O]C(C)=O	2008 ovarian adenocarcinoma	cytotoxicity, MTT		72 h	IC50	1.59 ± 0.6 µM
CCN(C(=O)c1cc(F)ccc1Oc1nncnc1N1CCC2(C1)CN(C(CCCN(C)CCOC)C(C)C)C2)C(C)C (stereo not drawn)	OCI-AML-3 (NPM1c)	inhibitor, QuantiGene multiplex, item: MEIS1 mRNA			IC50	> 3 µM
CC(C)c1ccc(N(C)c2ccc3c(c2)OCC[C@H]3CNc2cnccc2C(=O)O)cc1	C2BBe1	cell growth or viability, ATP luminescence		7 days	IC50	≥ 10 µM

For quick reference, copied from above:
SMILES	target or system	test	test system	setting	quantity	result
CCN(C(=O)c1cc(F)ccc1Oc1nncnc1N1CCC2(C1)CN(C(CCCN(C)CCOC)C(C)C)C2)C(C)C (stereo not drawn)	OCI-AML-3 (NPM1c)	inhibitor, QuantiGene multiplex, item: MEIS1 mRNA			IC50	> 3 µM
CCCON(Cc1ccc(C(=O)NO)cc1)C(=O)Nc1cc(C)cc(C)c1	SUP-B15 B-ALL	cell viability, CellTiter-Glo		72 h	IC50	2.16 ± 0.124 µM
